Measured values gathered from unrelated publications.
Each numbered part is a random draw from the data of one study; scales do not carry over between parts. Changes are numbered by the printed parent chain.

Block 1
Target: Histone acetyltransferase KAT6A, both winged helices, GST fusion (KAT6A, Homo sapiens, UniProt Q92794, residues 1-181)
Technique: protein binding microarray
Molecule type: double-stranded DNA, one strand shown
Matrix: in vitro
Tested at: not given
Notes: 8-mer, flanks averaged, mean of 2 arrays, mostly near background
Baseline: not given
Reading: higher = stronger binding
Endpoint: E-score
Target sequence (chain): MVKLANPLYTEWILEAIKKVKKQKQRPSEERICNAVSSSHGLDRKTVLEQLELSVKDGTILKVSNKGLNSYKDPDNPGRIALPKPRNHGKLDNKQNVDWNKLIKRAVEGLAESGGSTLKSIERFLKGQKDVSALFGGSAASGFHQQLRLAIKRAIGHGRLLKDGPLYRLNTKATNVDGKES
GAATGAGA: -0.0847
ATCTCCAC: -0.07
AAGTAAAT: -0.124
ATCTGTCC: -0.0382
CCCTCCTC: -0.243
ATGACGAG: -0.00245
GGTCGACC: 0.279
AGCGTTGC: 0.133
GCAAAACA: -0.0387
GAATACCA: -0.133
AGCTTTTA: 0.0769
CTTCGGGC: -0.0216
ATCGAGCG: 0.224
CACCTGGA: -0.301
TAGGAATA: -0.261
CCGATGGA: 0.016
CAAAAAAC: -0.0696

Block 2
Molecule: PhoQ, residues 284 288 289 292 302 303 TLASMF
Technique: Sort-seq
Measured: YFP reporter
Matrix: E. coli
Notes: PhoQ-PhoP variant library
With: 10 µM Mg2+
Baseline: high Mg2+ state
Reading: higher = stronger signaling
Endpoint: fold induction
PhoP, residues 12 14 15 18 19 TQCLL (Escherichia coli, UniProt P23836): 3.63
PhoP, residues 12 14 15 18 19 ICWRQ (Escherichia coli, UniProt P23836): 28.2
PhoP, residues 12 14 15 18 19 VHTVL (Escherichia coli, UniProt P23836): 1.39

Block 3
Target: ABI1, truncated, D143A, DHFR fusion (Arabidopsis thaliana)
Technique: DHFR PCA, deep sequencing
Matrix: yeast
Notes: methotrexate growth selection, single substitutions
With: (+)-ABA 710 µM
Baseline: wild-type fitted maximum
Reading: higher = stronger binding
Endpoint: relative binding score
Starting sequence: PYL1, truncated, DHFR fusion (Arabidopsis thaliana); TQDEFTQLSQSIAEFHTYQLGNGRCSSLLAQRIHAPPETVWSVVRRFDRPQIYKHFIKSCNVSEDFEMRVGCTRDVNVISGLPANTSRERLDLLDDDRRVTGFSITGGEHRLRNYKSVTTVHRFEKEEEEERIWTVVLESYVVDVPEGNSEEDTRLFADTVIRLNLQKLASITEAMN; partner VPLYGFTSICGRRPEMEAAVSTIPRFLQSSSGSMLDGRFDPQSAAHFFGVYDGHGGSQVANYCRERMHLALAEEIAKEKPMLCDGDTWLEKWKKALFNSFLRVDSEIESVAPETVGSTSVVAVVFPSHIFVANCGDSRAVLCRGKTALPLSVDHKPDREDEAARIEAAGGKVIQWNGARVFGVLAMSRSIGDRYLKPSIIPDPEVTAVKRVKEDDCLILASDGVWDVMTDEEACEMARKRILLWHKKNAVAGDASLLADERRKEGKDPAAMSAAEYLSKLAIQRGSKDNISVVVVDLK
R132W: 91.9%
D153C: 78.4%
V142C: 102%
I33R: -7.98%
R113K: 110%
I162F: -11.8%
S171E: 108%

Block 4
Target: Prothrombin, mature alpha-thrombin (F2, Homo sapiens, UniProt P00734)
Technique: aptamer microarray, sandwich
Molecule type: DNA with 2'F-ANA
Matrix: in vitro
Tested at: 200 nM
Notes: whole 15-mer aptamer, many near background
With: Cy3 exosite-II aptamer, 400 nM
Reading: higher = stronger binding
Endpoint: mean fluorescence intensity
Oligonucleotide: GGTTGGTGTGGTTGG
2'F-ANA at 1 3 4 5 8 9 10 11 13 15: 46.2 a.u.
2'F-ANA at 1 2 3 5 6 7 8 13: 54.5 a.u.
2'F-ANA at 3 5 6 9 11 12 13 14 15: 71.7 a.u.
2'F-ANA at 1 3 5 10 11: 46.8 a.u.
2'F-ANA at 1 5 8 11 13 14: 52.1 a.u.
2'F-ANA at 1 3 11 12 13 14 15: 116 a.u.
2'F-ANA at 1 3 7 9 10 12 14: 59 a.u.
2'F-ANA at 2 5 8 9 10 11 12 13: 73.8 a.u.
2'F-ANA at 3 4 6 11 12: 767 a.u.

Some of these lines once more (block 3):
R113K: 110%
I162F: -11.8%
I33R: -7.98%
D153C: 78.4%
R132W: 91.9%
S171E: 108%
